{"data": "Assay results pooled from the literature", "note": "A part holds a random share of what one study measured. Substitutions count along the parent as printed."}
{"data": "Sample 1", "target": "Sal-like protein 4, full length isoform A (SALL4, Homo sapiens, UniProt Q9UJQ4, residues 1-1053)", "method": "universal PBM", "molecule type": "double-stranded DNA, one strand shown", "matrix": "in vitro", "tested at": "600 nM", "notes": "8-mer, flanks averaged, mean of replicates", "reading": "higher = stronger binding", "UniProt Q9UJQ4, sequence (whole entry, looked up)": "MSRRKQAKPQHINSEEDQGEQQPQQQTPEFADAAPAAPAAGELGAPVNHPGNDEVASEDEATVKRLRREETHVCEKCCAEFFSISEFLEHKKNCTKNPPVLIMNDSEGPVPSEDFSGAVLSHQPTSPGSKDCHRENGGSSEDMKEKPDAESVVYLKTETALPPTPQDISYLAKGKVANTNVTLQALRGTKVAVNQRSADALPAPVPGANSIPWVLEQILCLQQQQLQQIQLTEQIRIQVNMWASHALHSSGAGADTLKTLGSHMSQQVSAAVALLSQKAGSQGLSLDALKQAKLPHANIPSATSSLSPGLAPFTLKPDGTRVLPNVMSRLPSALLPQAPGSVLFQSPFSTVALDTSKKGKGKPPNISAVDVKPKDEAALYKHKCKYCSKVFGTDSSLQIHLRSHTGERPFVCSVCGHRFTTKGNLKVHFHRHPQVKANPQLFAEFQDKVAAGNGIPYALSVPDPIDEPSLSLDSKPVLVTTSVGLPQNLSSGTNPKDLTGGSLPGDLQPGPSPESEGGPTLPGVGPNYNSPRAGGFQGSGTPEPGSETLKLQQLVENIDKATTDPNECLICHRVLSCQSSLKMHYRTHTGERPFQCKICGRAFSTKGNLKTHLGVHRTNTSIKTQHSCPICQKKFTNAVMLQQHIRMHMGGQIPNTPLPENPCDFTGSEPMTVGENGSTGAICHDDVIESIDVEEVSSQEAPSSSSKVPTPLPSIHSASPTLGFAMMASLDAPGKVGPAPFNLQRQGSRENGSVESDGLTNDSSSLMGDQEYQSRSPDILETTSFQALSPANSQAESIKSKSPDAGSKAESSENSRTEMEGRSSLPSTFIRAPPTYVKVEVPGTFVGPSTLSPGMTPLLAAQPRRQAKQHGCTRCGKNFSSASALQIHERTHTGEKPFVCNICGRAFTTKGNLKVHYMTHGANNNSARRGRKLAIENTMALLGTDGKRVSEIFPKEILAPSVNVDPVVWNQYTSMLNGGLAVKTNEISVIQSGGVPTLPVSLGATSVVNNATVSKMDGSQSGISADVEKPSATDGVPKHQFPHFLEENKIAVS"}
{"Strand": "CGGCGTTC", "E-score": -0.373}
{"Strand": "GGGATGAC", "E-score": -0.178}
{"Strand": "ATGAGTTA", "E-score": 0.173}
{"Strand": "CTTCGTTA", "E-score": 0.127}
{"Strand": "AATGTCGC", "E-score": -0.0952}
{"Strand": "ACCCCTTC", "E-score": -0.121}
{"Strand": "CTCGAGGA", "E-score": -0.18}
{"Strand": "CGTCTTCA", "E-score": 0.011}
{"Strand": "CTGTTGAA", "E-score": 0.234}
{"Strand": "GATGCCGC", "E-score": -0.284}
{"Strand": "AAGGGGAC", "E-score": -0.211}
{"data": "Sample 2", "target": "ABI1, truncated, D143A, DHFR fusion (Arabidopsis thaliana)", "method": "DHFR PCA, deep sequencing", "matrix": "yeast", "notes": "methotrexate growth selection, single substitutions", "with": "(+)-ABA 0.032 µM", "reference": "wild-type fitted maximum", "reading": "higher = stronger binding", "parent": "PYL1, truncated, DHFR fusion (Arabidopsis thaliana); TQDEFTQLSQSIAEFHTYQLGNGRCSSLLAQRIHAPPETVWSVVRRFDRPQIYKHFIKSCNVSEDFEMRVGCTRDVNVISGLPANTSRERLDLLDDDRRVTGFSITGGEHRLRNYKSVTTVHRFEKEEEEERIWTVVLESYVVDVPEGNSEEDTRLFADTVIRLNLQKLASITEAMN"}
{"Variant": "L91M", "relative binding score": "1.19%"}
{"Variant": "A84P", "relative binding score": "27.6%"}
{"Variant": "P83N", "relative binding score": "17.4%"}
{"Variant": "E129L", "relative binding score": "20.5%"}
{"Variant": "E130Q", "relative binding score": "23.3%"}
{"Variant": "S11K", "relative binding score": "4.15%"}
{"Variant": "Y53L", "relative binding score": "-1.66%"}
{"Variant": "L156D", "relative binding score": "-4.03%"}
{"Variant": "T120R", "relative binding score": "-1.3%"}
{"Variant": "P36F", "relative binding score": "3.95%"}
{"data": "Sample 3", "target": "Phosphate system positive regulatory protein PHO4, full length, GST-tagged (PHO4, Saccharomyces cerevisiae, UniProt P07270, residues 1-312)", "method": "competition protein-binding microarray", "molecule type": "double-stranded DNA, one strand shown", "matrix": "in vitro", "tested at": "2 µM", "notes": "whole 60-bp probe, lowest competitor level", "with": "Cbf1 competitor, 0.05 µM", "reading": "higher = stronger binding", "shared flanks, not repeated": "… GTCTTGATTCGCTTGACGCTGCTG", "Target sequence (chain)": "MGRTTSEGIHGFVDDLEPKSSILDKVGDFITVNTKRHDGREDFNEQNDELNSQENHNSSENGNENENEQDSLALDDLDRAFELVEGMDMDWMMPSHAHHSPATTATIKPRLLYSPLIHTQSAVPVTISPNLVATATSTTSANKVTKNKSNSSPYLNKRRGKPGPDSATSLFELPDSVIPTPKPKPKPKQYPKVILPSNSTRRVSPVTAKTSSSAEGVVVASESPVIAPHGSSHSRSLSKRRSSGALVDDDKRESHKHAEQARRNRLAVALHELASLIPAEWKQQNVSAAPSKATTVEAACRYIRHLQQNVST"}
{"Strand": "AAAATCTGTATGACTCACGTGCAAATCATCCATGAG", "fluorescence intensity [a.u.]": 15000}
{"Strand": "GATAAGAGAGCACAGCACGTGGGTAAAGAGAGATAC", "fluorescence intensity [a.u.]": 18400}
{"Strand": "TCTGACCCCGATCCGCACGCTACTGCGTCGTCGATC", "fluorescence intensity [a.u.]": 6400}
{"Strand": "TCCTTATGCAGGTATTCTGTGACAGTAAAGTATAGA", "fluorescence intensity [a.u.]": 4030}
{"Strand": "TAAGTCATTAAGCGTCATGCCAGGTTTTCTTGGAAG", "fluorescence intensity [a.u.]": 4490}
{"Strand": "AAAGCGGTAATTTGGAAAGTGGGTGCAGATATCTAT", "fluorescence intensity [a.u.]": 4500}
{"Strand": "TCGAGGTTCTCTTTCCCCGTGCCAGACTTGGCTTGA", "fluorescence intensity [a.u.]": 8180}
{"Strand": "CGGTAACGTCGCACTCACATGAGTTTTCCTGACTTC", "fluorescence intensity [a.u.]": 4870}
{"Strand": "CGTCCTAGTGATTGTTTTGTGGGTGCCATGAGGAAG", "fluorescence intensity [a.u.]": 6010}
{"Strand": "CGTCCTAGTGATTGCCACGTGGGTGCCATGAGGAAG", "fluorescence intensity [a.u.]": 18700}
{"Strand": "GACGGAACCGTTCCGCTCGTGGCCGATTCAATGTGT", "fluorescence intensity [a.u.]": 10300}
{"Strand": "TCCCCATGAACTCAGCATGTGCTACTCCAGTTAATG", "fluorescence intensity [a.u.]": 10300}
{"Strand": "AAAAAGCAAGGTAGACAGGCGTGGAACGCGGAGTAG", "fluorescence intensity [a.u.]": 7600}
{"Strand": "CACCGACTGCTTCCGTGCGTGATGGGTAATGCAGTG", "fluorescence intensity [a.u.]": 7870}
{"Strand": "CGTCCTAGTGATTGGGCCGTGGGTGCCATGAGGAAG", "fluorescence intensity [a.u.]": 7730}
{"data": "Single results of other studies"}
{"Molecule": "PhoQ, residues 284 288 289 292 302 303 AGGLSV", "target": "PhoP, residues 12 14 15 18 19 LFHKL (Escherichia coli, UniProt P23836)", "assay": "Sort-seq, measured: YFP reporter", "test system": "E. coli", "conditions": "PhoQ-PhoP variant library, with: 10 µM Mg2+", "how to read": "reference: high Mg2+ state, higher = stronger signaling", "measurement": "fold induction", "value": 3.17}
{"note": "Excerpt of the above (sample 2):"}
{"Variant": "A84P", "relative binding score": "27.6%"}
{"Variant": "P83N", "relative binding score": "17.4%"}
{"Variant": "E129L", "relative binding score": "20.5%"}
{"Variant": "E130Q", "relative binding score": "23.3%"}
{"Variant": "S11K", "relative binding score": "4.15%"}
{"Variant": "Y53L", "relative binding score": "-1.66%"}
